Assay results collected from several papers.
Parts stem from different laboratories: compare values within a part only.

Study 1 — technique: RNA Bind-n-Seq; form: RNA; medium: in vitro; tested at: 200 nM; notes: whole 134-nt RNA, ends assumed; with: 150 mM KCl; reference: input library; reading: higher = stronger binding
Target: Ras GTPase-activating protein-binding protein 1, full length (G3BP1, Homo sapiens, UniProt Q13283)
UniProt Q13283, sequence (whole entry, looked up): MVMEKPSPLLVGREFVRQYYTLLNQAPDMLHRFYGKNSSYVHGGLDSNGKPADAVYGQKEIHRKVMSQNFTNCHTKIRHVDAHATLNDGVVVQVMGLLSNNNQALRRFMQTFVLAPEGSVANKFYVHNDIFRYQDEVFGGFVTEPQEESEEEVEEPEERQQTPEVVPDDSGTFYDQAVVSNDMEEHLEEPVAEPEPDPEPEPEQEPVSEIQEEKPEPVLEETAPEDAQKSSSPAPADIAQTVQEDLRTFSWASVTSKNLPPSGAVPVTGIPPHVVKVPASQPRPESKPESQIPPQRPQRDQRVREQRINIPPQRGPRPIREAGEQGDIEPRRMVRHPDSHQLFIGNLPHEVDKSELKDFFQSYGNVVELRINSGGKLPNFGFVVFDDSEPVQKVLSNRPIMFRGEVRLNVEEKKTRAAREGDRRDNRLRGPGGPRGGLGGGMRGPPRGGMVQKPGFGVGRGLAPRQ
Shared flanks, not repeated: GGGAGUUCUACAGUCCGACGAUC … UGGAAUUCUCGGGUGUCAAGG
Sequence | log2 enrichment
AAGUCCUGUGCUACACAUCGUAUGUACCGAAUCGGAAAAGGGGAAAAGGGGAAAAGGAAAGUAUUAUGUUACGCCGUUCGGAUCUGCACU | -0.513
CAAGUCCUGUGCUACACAUCGUAUGUACCGAAUCGGUUUUUUUGGAAAGGAAAGGAAAGUAUUAUGUUACGCCGUUCGGAUCUGCACUUC | -1.03
UAGCUAAACUAAUGUCAACUUAUUUCCUUUUUUCCUUUAGCCACCAUCAAAGAACAGACGAGAGAGAACAGAACUGAAGCCUGAUUUCUU | -0.96
CACAGACAACAAACACCCACACAGACACAGAGGGAAGGGGUUGGGAUGGGGACAGGGUGCACAGCAGGGCGGGGUAGGACCCCAGCCCCU | 2.09
CCUGUGCUACACAUCGUAUGUACCGAAUCGGGGUUUUUUUGGGGAAAGGGGUUUUUGGGGAAAGUAUUAUGUUACGCCGUUCGGAUCUGC | 0.108
GUCCUGUGCUACACAUCGUAUGUACCGAAUCAAAUUUUUAAACCCAAACCCCCCCAAAAAAGUAUUAUGUUACGCCGUUCGGAUCUGCAC | -0.328
CUGUGCUACACAUCGUAUGUACCGAAUCGGGGUUUUUUUGGUUUUUUUGGGGUUUUUUUGGAAAGUAUUAUGUUACGCCGUUCGGAUCUG | -0.809
UGCAGCUGCUGGCCGCCUCCUAUGACCUGCACCGCUACUUCUACACGGGUGCCGAGAUCCUGGGCCUCAUCGACGAGAAGCACCGCGAGC | 0.0615
GUCCUGUGCUACACAUCGUAUGUACCGAAUCGGGCCCCCGGCCCCCGGGGCCCCCGGGGAAAGUAUUAUGUUACGCCGUUCGGAUCUGCA | -0.941
AGUCCUGUGCUACACAUCGUAUGUACCGAAUCGGGUUUUUUUGGGUUUGGGAAAGGGAAAGUAUUAUGUUACGCCGUUCGGAUCUGCACU | -0.265
ACCAUGCAGGUGGGCAUCUUUGGGAAGUGGGGCGAGGGGGGGAUAGGGAGGGGGGUAACACUUUGGGAACAGGUGGUCCCAGGUCGUUUC | 1.48
UGGGAGGUGGAUUUUGUUUAUUUUUUUAGCUCAUUUCCAGGGGUGGGAAUUUUUUUUUAAUAUGUGUCUUGAAUAAAGUUGUUUUUGAAA | 0.173
AGUCCUGUGCUACACAUCGUAUGUACCGAAUCGGGGAGGGGAAAAAAAGGGGAGGGGAAAGUAUUAUGUUACGCCGUUCGGAUCUGCACU | 0.673
GCAGGAAGUAAAGACAAAUGGAAAUGCUUCGGAUAGUGGCAGGGGUGGGGGUUGCUAAGGAAAGGGUGGGAUGGGAGUGGGUAAAGAGUU | 1.03

Study 2 — technique: RNA Bind-n-Seq; form: RNA; medium: in vitro; tested at: 365 nM; reference: no-protein control; reading: higher = stronger binding
Target: RNA binding protein fox-1 homolog 2, RRM domain, GST-SBP tag (RBFOX2, Homo sapiens, UniProt O43251-10, residues 100-194)
Notes: natural RNA segment, single round, ends assumed
Shared flanks, not repeated: GGGAGUUCUACAGUCCGACGAUC … UGGAAUUCUCGGGUGCCAA
Residues (chain): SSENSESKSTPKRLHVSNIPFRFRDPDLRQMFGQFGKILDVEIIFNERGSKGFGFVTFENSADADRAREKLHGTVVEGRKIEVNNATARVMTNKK
Sequence | RBNS enrichment (R)
UCAGUGGCCCCAAGAGGGAGCUGAUAUCAUGAGGAUAACAUUGGCGGGAGGGGAGUUAACUGGCAGGCAUGGCAAGGUUGCAUAUGUAAUAAAGUACAAGCUGUUAAAAA | 1.01
GUUUGGCGUGAUGUCACGUGUGGCCAGACUGGCGACCGUACACUAGGUUUUUGAUCUUGCACUUUGCGAUGCAAAUUAUCUGUGUGGAGGGGAAGCGAAUGUUUCUGAAC | 0.311
AAAAACAUCACAAAGUAGGUCAUUCCAUCACCACCCUUGUCUCUCUACACAUUUUGCCUUUGGGGAUCUGGUUGGGGUUUUGGGUUUUUUGUUGUUGUUGUUUAUUUGUU | 0.538
UUUGUGAAGGUUUUUAUCUGUGUAGAAUGGGUGUUUGACUUGUUUUAGCCUAUUAAAUUUUUAUUUUCUUUCACUCUGUAUUAAAAGUAAAACUUACUAAAAGAAAAGAG | 1.18
ACUUCGGGGACUCAGACGGGGGAGAUCCGGGCCAGUAGCUCCCAUGCCACCUGACUGACAGACGCCUGGGGACAGGCAUAUCCCUGCUCCCCGCAGAGAACACAGAACCC | 0.556
CAGCACCAAGACUCACGGAAAGACUAGACUGUGUGGGUAUCUGAAACAAAGCCCACAGGAUACGCCCGAGACCCUCAAUUCAAGGAGAGCUCCAAGGAUGUGUUGGACUC | 0.945
UCCGGAGGGCGAGACUCCGGCGGAAGCAUUCCCGGGCGGGUGACCCAGCACGGUCCCUCUUGGAAUUGGAUUCGCCAUUUUAUUUUUCUUGCUGCUAAAUCACCGAGCCC | 0.676
UUGUUCCUUUAGCAAUCAACCCCAGAAAAUAUUAAAAUGGGAUCAUACACAGAAGAUAGAAAAAUCUAGCAAAACUUCUCUUUCUGUAAGCCAGAGUCUUGUCUAUCAGA | 0.451
CUGUGGUCCAGAAAUCAAUGUGUUUGUCUGACAAAAAAAAAAAUAAAAUAAAAUAAACUGUUUUGAACAGAGUUGUUUGGUGUUCUUUCACUUGCAGAGGAGGUCUGGGG | 1.71
UUUGUGAAACAGACUUGUAUAUUCUAUUUUACAACUACAAAUGCCUCCAAAGUAUUGUACAAAUAAGUGUGCAGUAUCUGUGAACUGAAUUCACCACAGACUUUAGCUUU | 0.306
UCGCGGCCCCAGGGCGGAGCCCAGCUGCGGGAGCUGCCGCUGCUCAGCCAGUGUCGGGAAGAGUUGCCCGCCAGCCUUCCAGAGUUCCCCUACCCGAUUGGUCCCGGCCU | 0.62
ACUUUUGUACUAAGUAAGUGCUCCCAAGUCUUUUACUUGCUCUUCACAGCAACCCUAAUAGGUAUCUCCAUUUUACAUAGGUAAAAACUGAGGCUACAAACAAUCUAUGG | 0.673

Study 3 — technique: universal PBM; form: double-stranded DNA, one strand shown; medium: in vitro; tested at: 600 nM; reading: higher = stronger binding
Target: Sal-like protein 4, full length isoform A (SALL4, Homo sapiens, UniProt Q9UJQ4, residues 1-1053)
UniProt Q9UJQ4, sequence (whole entry, looked up): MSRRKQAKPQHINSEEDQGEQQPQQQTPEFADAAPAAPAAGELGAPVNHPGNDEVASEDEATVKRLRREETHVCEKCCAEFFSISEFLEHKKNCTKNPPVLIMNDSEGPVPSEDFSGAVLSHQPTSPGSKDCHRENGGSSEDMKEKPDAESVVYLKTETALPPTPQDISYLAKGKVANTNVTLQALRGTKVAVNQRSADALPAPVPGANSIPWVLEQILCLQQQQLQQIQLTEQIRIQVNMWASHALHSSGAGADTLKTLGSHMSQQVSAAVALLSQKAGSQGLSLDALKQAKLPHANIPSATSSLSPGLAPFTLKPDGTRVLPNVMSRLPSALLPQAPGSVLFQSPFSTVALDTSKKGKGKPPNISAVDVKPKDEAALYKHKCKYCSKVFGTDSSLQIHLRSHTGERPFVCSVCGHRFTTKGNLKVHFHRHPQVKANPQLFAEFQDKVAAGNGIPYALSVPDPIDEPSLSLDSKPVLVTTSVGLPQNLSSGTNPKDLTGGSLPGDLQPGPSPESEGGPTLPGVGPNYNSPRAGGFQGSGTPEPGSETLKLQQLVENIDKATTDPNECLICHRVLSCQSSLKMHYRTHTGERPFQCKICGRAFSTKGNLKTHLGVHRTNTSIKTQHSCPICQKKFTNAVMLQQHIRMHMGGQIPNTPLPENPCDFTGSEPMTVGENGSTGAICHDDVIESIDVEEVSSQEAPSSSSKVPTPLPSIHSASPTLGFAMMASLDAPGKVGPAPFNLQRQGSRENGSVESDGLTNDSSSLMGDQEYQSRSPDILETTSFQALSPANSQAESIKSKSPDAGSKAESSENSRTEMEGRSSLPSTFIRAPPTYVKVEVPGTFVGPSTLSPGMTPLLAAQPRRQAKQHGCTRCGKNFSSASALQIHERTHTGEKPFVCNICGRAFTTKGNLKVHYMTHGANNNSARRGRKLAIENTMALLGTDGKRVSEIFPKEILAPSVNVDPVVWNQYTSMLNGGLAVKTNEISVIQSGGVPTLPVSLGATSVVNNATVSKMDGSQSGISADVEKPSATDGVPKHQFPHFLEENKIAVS
Notes: 8-mer, flanks averaged, mean of replicates
Sequence | E-score
AGAAGGGA | -0.259
ATACTATC | 0.254
CACCATTC | -0.00408
CTCAGTCC | -0.168
GCGCCACA | -0.267
CACGAACC | -0.22
CTCCCTAA | -0.0458
GATGCGTA | 0.0758
AGTGGCTG | -0.256
CGAAACCG | -0.27
AAAAGTAT | 0.284
ACGCGTAT | 0.109
CCTCGACA | -0.0389
GGATTAAC | -0.0311
GATTATGA | 0.406
AGGCTTGG | -0.228
GTGACGCA | -0.172
CAATCCTG | 0.124
CCCAGACG | -0.296
ATTAGAAA | 0.239
AGTTACAC | 0.165
GAGAACTA | 0.142
AAAAGCTT | 0.139
AGAGAATA | 0.222
GTCATCGA | 0.047

Study 4 — technique: protein-binding microarray; form: double-stranded DNA, one strand shown; medium: in vitro; tested at: not given; reading: higher = stronger binding
Target: Protein C-ets-1 (ETS1, Homo sapiens, UniProt P14921, residues 1-441, full length assumed)
Notes: k-mer, scored over probes, only values ≥0.25
Construct (chain): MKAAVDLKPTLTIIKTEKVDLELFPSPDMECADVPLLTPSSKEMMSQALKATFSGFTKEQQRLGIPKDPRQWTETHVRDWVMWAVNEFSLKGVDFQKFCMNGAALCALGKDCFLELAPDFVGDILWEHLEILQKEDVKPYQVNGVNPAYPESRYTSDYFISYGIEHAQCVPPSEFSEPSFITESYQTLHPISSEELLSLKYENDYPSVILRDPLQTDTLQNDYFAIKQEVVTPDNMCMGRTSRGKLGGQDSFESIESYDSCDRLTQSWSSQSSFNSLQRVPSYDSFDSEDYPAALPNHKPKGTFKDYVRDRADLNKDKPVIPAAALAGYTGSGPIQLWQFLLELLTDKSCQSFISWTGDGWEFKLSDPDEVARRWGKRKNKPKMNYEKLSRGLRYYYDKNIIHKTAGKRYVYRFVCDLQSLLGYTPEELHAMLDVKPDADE
Sequence | E-score
AGGAAAGG | 0.253
AATCCCGG | 0.276
CGATTCCG | 0.307
CCCGCCCG | 0.299
ATGTCCGC | 0.312
AGGAAGTA | 0.459
CCGGTATA | 0.278
CCGCCCGC | 0.263
GGACGTAC | 0.288
ACTTCCCC | 0.43
GATATCCC | 0.297
ACAGATCC | 0.261
CCGGGATA | 0.299
GGACGTAA | 0.267
AACGGGAA | 0.359
AAACATCC | 0.447
CGGAAAAA | 0.373

Study 5 — technique: competition protein-binding microarray; form: double-stranded DNA, one strand shown; medium: in vitro; tested at: 2 µM; with: Cbf1 competitor, 0.05 µM; reading: higher = stronger binding; shared flanks, not repeated: … GTCTTGATTCGCTTGACGCTGCTG
Target: Phosphate system positive regulatory protein PHO4, full length, GST-tagged (PHO4, Saccharomyces cerevisiae, UniProt P07270, residues 1-312)
Notes: whole 60-bp probe, lowest competitor level
Construct (chain): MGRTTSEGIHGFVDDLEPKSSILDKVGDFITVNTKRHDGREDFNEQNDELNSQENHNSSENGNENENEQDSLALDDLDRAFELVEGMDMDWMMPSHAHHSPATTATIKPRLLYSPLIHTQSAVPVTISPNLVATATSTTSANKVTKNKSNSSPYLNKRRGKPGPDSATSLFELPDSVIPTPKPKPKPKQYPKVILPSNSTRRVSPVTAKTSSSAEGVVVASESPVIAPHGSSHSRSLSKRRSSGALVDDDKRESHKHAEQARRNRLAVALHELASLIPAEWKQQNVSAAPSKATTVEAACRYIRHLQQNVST
Sequence | fluorescence intensity
AAATTGGATGAAGTTGTTGTGATGCTCAAGAAAGTT | 3890 a.u.
TTGCCATCTGTCCGTCACACTTTGTTCAACAACTAC | 4520 a.u.
GCCAAGGACCATTACCCCGTGAAGAGATTCTATTGG | 5680 a.u.
TTAGGGCATTTTCGTCACACGGTAGTGCTCCAGATG | 6070 a.u.
TTTTGCTAAAATGAACTTGTGTCGCAAATTCCGTTC | 4080 a.u.
ATATGCTTTTGTTCGCATGTGGTGTTATTCCAGTTG | 10700 a.u.
GTCTTGTCTCATTGCTGAGTGGGTGTCCCCACTTCA | 4120 a.u.
ATTTGGCGAACTGTGAACGTGCGGAGGGCAGAATCC | 11700 a.u.
CTTGGATGGATAGGACACGTGACGGCTTGAATGTAG | 16900 a.u.
AACGAAATCCACCATCACGTTCCTAGCAACAAGAGG | 12200 a.u.
TCGCCACCTCTGGTACCCGTGACGAAGCCAAGAAAT | 6940 a.u.
CGGGGTTAAGTTTTTCACGTGGAGTGCTTGCAGCAG | 12400 a.u.
CTTCTGTAAATTTGTCACGAAACTTGACGCGCCCCG | 3430 a.u.
TGCGCAACAACTTGTCCTGTGGGTGTATGTCTAGAA | 5080 a.u.
CGGGGTTAAGTTTGACACGTGGGTGGCTTGCAGCAG | 17300 a.u.
ACTGAGTCTACCAGTTATGTGACAGTATATGTCAGC | 3930 a.u.
TGGTCTAGTCTTACCCACGCACTCGCAGGAACAAAC | 9260 a.u.
CATACCCAACCTTGGGAAGTGGGTGAAGATATTTGT | 3650 a.u.
CCACCACTCCAACAGAGCGTGTTGAAATTCAAAAAT | 8180 a.u.
TGTTACTGGGACAACGGCGTGCTAAGTGCATTTACT | 8680 a.u.
AGGGTGGGTTTGATTTTCATCTTGATGCAACCTCTC | 3210 a.u.
TCGGACGATAACGCCGGCGTGATGGCCACAGAAACA | 4990 a.u.
AAGATAGGATTGAACATCGTGCAAACAATGGCCAGC | 9470 a.u.
GTCTTGTCTCATTGGAACGTGGGTGTCCCCACTTCA | 14500 a.u.
TCAAGTATCTTTTAGCACGTATCAGATAACTAATGG | 7760 a.u.

Study 6 — technique: protein binding microarray; form: double-stranded DNA, one strand shown; medium: in vitro; tested at: not given; reference: not given; reading: higher = stronger binding
Target: Histone acetyltransferase KAT6A, winged helix 2, GST fusion (KAT6A, Homo sapiens, UniProt Q92794, residues 85-181)
Notes: 8-mer, flanks averaged, mean of 2 arrays, mostly near background
Residues (chain): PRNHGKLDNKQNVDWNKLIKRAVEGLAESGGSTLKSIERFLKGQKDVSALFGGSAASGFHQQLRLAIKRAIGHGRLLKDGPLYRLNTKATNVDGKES
Sequence | E-score
TCTCCAGA | 0.0699
GGCGGGCA | 0.253
CCGCATCC | 0.0821
AGGCTCAG | -0.037
CAGTCAGG | -0.196
CTATTCCC | 0.0899
TAGAGATA | 0.0938
CTCATGCC | -0.053
CCCCGCGG | 0.32
ATCTAGGG | -0.198
AGCTCCAG | 0.123
AACGCACT | 0.0564
ACGTCTAG | -0.0118
CCGTATGA | 0.0639
AAGTAATT | -0.0158
CCACAGAG | 0.0692
CAAACGGA | 0.0371
CTCGCAGA | 0.0298
